Experimental data pooled from the literature.
Numbers after ± are the reported error.

SMILES	assay	test system	conditions	measurement	value
COc1ccc(C2CC(c3ccc(C)cc3)=Nc3ccccc3S2)cc1 (stereo not drawn)	–	Wistar rat, streptozotocin-induced diabetes, serum	20 mg/kg, 28 days	serum ALT	21.1 ± 2.71 IU/L
Cc1ccc(-c2oc3ccccc3c(=O)c2OCc2ccccc2)cc1	–	diabetic rat	7.5 mg/kg, 28 days, p-nitrophenyl β-glucoside induced	serum LDL cholesterol	117 ± 3.29 mg/dL
CCCC[C@H](NC(=O)[C@@H](NC(=O)[C@H](CC(=O)O)NC(=O)[C@H](CCC(N)=O)NC(=O)[C@H](CC(C)C)NC(=O)[C@H](CC(C)C)NC(=O)[C@H](CCCN)NC(=O)[C@H](CCCNC(=N)N)NC(=O)[C@H](C)NC(=O)[C@H](CO)NC(=O)[C@H](CC(C)C)NC(=O)[C@H](CCC(N)=O)NC(=O)[C@H](CC)NC(=O)[C@H](CC(C)C)NC(=O)[C@@H](NC(=O)[C@H](CCCN)NC(=O)[C@H](CCCNC(=N)N)NC(=O)[C@H](Cc1ccc(O)cc1)NC(=O)[C@H](CO)NC(=O)[C@H](CC(N)=O)NC(=O)[C@@H](NC(=O)[C@H](Cc1ccccc1)NC(=O)[C@@H](NC(=O)[C@H](C)NC(=O)[C@H](CC(=O)O)NC(=O)[C@@H](CC)NC(=O)CCc1ccc(O)cc1)[C@@H](C)CC)[C@@H](C)O)C(C)C)[C@@H](C)CC)C(=O)N[C@@H](CO)C(=O)N[C@@H](CCCNC(=N)N)C(=O)NCCCC(N)=O	GH release, ELISA	male Sprague-Dawley rat, anaesthetised, serum	subcutaneous, 3 µg/kg, 15 min	serum GH level	200 ± 10.7 ng/mL
COc1ccc(C2CC(c3ccc(C)cc3)=Nc3ccccc3S2)cc1OC (stereo not drawn)	–	Wistar rat, streptozotocin-induced diabetes, serum	20 mg/kg, 28 days	serum creatinine	0.64 ± 0.33 mg/dL
O=c1c(OCc2ccccc2)c(-c2cccc([N+](=O)[O-])c2)oc2ccccc12	–	diabetic rat	5 mg/kg, 28 days, p-nitrophenyl β-glucoside induced	serum total cholesterol	152 ± 4.8 mg/dL
CCCC[C@H](NC(=O)[C@@H](NC(=O)[C@H](CC(=O)O)NC(=O)[C@H](CCC(N)=O)NC(=O)[C@H](CC(C)C)NC(=O)[C@H](CC(C)C)NC(=O)[C@H](CCCN)NC(=O)[C@H](CCCNC(=N)N)NC(=O)[C@H](C)NC(=O)[C@H](CO)NC(=O)[C@H](CC(C)C)NC(=O)[C@H](CCC(N)=O)NC(=O)[C@H](CC)NC(=O)[C@H](CC(C)C)NC(=O)[C@@H](NC(=O)[C@H](CCCN)NC(=O)[C@H](CCCNC(=N)N)NC(=O)[C@H](Cc1ccc(O)cc1)NC(=O)[C@H](CO)NC(=O)[C@H](CC(N)=O)NC(=O)[C@@H](NC(=O)[C@H](Cc1ccccc1)NC(=O)[C@@H](NC(=O)[C@H](C)NC(=O)[C@H](CC(=O)O)NC(=O)[C@@H](C)NC(=O)[C@H](Cc1ccc(O)cc1)NC)[C@@H](C)CC)[C@@H](C)O)C(C)C)[C@@H](C)CC)C(=O)N[C@@H](CC(=O)O)C(=O)NCCCCNC(=N)N	GH release, ELISA	male Sprague-Dawley rat, anaesthetised, serum	subcutaneous, 3 µg/kg, 0 min	serum GH level	41.1 ± 5.6 ng/mL
O=c1c(OCc2ccccc2)c(-c2ccc(Cl)cc2)oc2ccccc12	–	diabetic rat	7.5 mg/kg, 28 days, p-nitrophenyl β-glucoside induced	serum HDL cholesterol	46.1 ± 2.11 mg/dL
Cc1cc(O)c(C=O)c2c1C(=O)Oc1c(CO)c(O)c3c(c1O2)C(O)OC3=O (stereo not drawn)	–	streptozotocin-induced diabetic male rats, serum	5 mg/kg, 5 weeks	serum insulin	5.06 ± 0.26 mIU/L
CCCC[C@H](NC(=O)[C@@H](NC(=O)[C@H](CC(=O)O)NC(=O)[C@H](CCC(N)=O)NC(=O)[C@H](CC(C)C)NC(=O)[C@H](CC(C)C)NC(=O)[C@H](CCCN)NC(=O)[C@H](CCCNC(=N)N)NC(=O)[C@H](C)NC(=O)[C@H](CO)NC(=O)[C@H](CC(C)C)NC(=O)[C@H](CCC(N)=O)NC(=O)[C@H](CC)NC(=O)[C@H](CC(C)C)NC(=O)[C@@H](NC(=O)[C@H](CCCN)NC(=O)[C@H](CCCNC(=N)N)NC(=O)[C@H](Cc1ccc(O)cc1)NC(=O)[C@H](CO)NC(=O)[C@H](CCC(N)=O)NC(=O)[C@@H](NC(=O)[C@H](Cc1ccccc1)NC(=O)[C@@H](NC(=O)[C@H](C)NC(=O)[C@H](CC(=O)O)NC(=O)[C@@H](C)NC(=O)CCc1ccc(O)cc1)[C@@H](C)CC)[C@@H](C)O)C(C)C)[C@@H](C)CC)C(=O)N[C@@H](CC(=O)O)C(=O)N[C@@H](CCCNC(=N)N)C(=O)NC	GH release, ELISA	male Sprague-Dawley rat, anaesthetised, serum	subcutaneous, 3 µg/kg, 15 min	serum GH level	213 ± 32 ng/mL

Excerpt of the above:
SMILES	assay	test system	conditions	measurement	value
O=c1c(OCc2ccccc2)c(-c2ccc(Cl)cc2)oc2ccccc12	–	diabetic rat	7.5 mg/kg, 28 days, p-nitrophenyl β-glucoside induced	serum HDL cholesterol	46.1 ± 2.11 mg/dL
